Results gathered from unrelated publications.
Compare with care: the assays were run in different laboratories.
Read-out: metabolic stability
Host: human

SMILES	matrix	tested at	pH	half-life [min]
Cc1c(Cc2ccc(OC(C)C(=O)O)cc2)c2ccc(C(=O)NC(C)c3ccc(C(C)(C)C)cc3)cc2n1C (mixture of isomers)	liver microsomes			> 60
CN(C)C(=O)c1cccc(N2Cc3cn(Cc4ccc(F)cc4F)nc3C2)c1	liver microsomes			68
O=C(O)Cc1ccccc1Nc1c(Cl)cccc1Cl	hepatocytes	1 µM		267
C/C(=N\OCCN1CCCC1)c1ccc(C(F)(F)F)cc1	liver microsomes			34.4
O=C(Nc1cc(-c2ccnc3[nH]ccc23)c(Cl)cn1)[C@H]1CCC[C@@H](NC(=O)C(F)(F)F)C1	liver microsomes			56.4
Cc1nc2ccc(S(=O)(=O)n3nc(SCc4ccc(Cl)cc4)nc3N)cc2s1	liver microsomes	1 µM	pH 7.4	2.5
CC(C)Cn1cc(Cc2cccc(OC(C)(C)C(=O)O)c2)c2cc(F)c(C(=O)N[C@@H](C)c3cccc(C(C)(C)C)c3)cc21	liver microsomes			> 60
CN(C)C(=O)c1cccc(N2Cc3cn(Cc4ccc(Cl)cc4)nc3C2)c1	liver microsomes			50
N=C(NCC[C@H](NC(=O)c1noc(-c2cc(F)ccc2F)n1)c1nc2ccccc2[nH]1)c1ccc([N+](=O)[O-])o1	liver microsomes	1 µM		2.9
CN(C)C(=O)c1ccnc(N2Cc3cn(Cc4ccc(F)cc4Cl)nc3C2)n1	liver microsomes			102
CCn1c(C)c(Cc2ccc(Cl)c(O[C@H](C)C(=O)O)c2)c2ccc(C(=O)N[C@@H](C)c3ccc(C(C)(C)C)cc3)cc21	liver microsomes			> 60
C/C(N)=N/C(=N\S(=O)(=O)c1ccc(C(F)(F)F)cc1)N1C[C@H](c2ccccc2)C(c2ccc(Cl)cc2)=N1	liver microsomes			110
Cc1c(Cc2ccc(Cl)c(OC(C)C(=O)O)c2)c2ccc(C(=O)NC(C)c3ccc(C(C)(C)C)cc3)cc2n1CC1CC1 (stereo not drawn)	liver microsomes			> 60
C=C(NC(=O)c1csc(-c2nc3c(cc2O)-c2nc(cs2)C(=O)NC(C(C)O)C(=O)NC(=C(C)OC)c2nc(cs2)C(=O)NC2c4nc(cs4)C(=O)NC(COC(=O)c4c5c6c(cccc6n4O)COC(=O)C(OC4CC(C)(O)C(N(C)C)C(C)O4)C2OC5)c2nc-3cs2)n1)C(N)=O (stereo not drawn)	liver microsomes	2 µM		128
CC(C)C[C@H](NC(=O)[C@@H]1CCCN1C(=O)[C@@H]1CCCN1C(=O)[C@H](CC(N)=O)NC(=O)[C@@H](N)Cc1ccc(Cl)c(Cl)c1)C(=O)N[C@@H](Cc1c[nH]cn1)C(=O)N[C@@H](CO)C(=O)N[C@H](C(=O)N[C@@H](C)C(=O)O)[C@@H](C)OP(=O)(O)O	liver microsomes	1 µM	pH 7.4	15
CC(C)C[C@H](NC(=O)[C@H](CO)NC(=O)[C@H](CCC(=O)O)NC(=O)CNC(=O)[C@H](C)NC(=O)OCc1ccccc1)C(=O)N[C@@H](Cc1ccc(O)cc1)C(=O)N[C@@H](CCC(=O)O)C(N)=O	plasma			759
O=C(N1CCCCC1)C12CC(c3ccccc3)(C1)C2(F)F	liver microsomes	2 µM	pH 7.4	85.7
Cc1c(Cc2cccc(OC(C)(C)C(=O)O)c2)c2ccc(C(=O)N[C@@H](C)c3ccc(C(C)(C)C)cc3)cc2n1CC1CCC1	liver microsomes			> 60
O=C(N1CCCCC1)C12CC(c3ccccc3)(C1)C2(Cl)Cl	liver microsomes	2 µM	pH 7.4	25.7
O=C(c1ccnc(N2Cc3cnn(Cc4ccc(F)cc4)c3C2)n1)N1CCOCC1	liver microsomes			59
O=c1c(-c2cnn(-c3ccccc3)c2)c(C(F)(F)F)oc2c(O)c(O)ccc12	liver microsomes			315
Cc1c(Cc2cc(F)cc(OC(C)(C)C(=O)O)c2)c2ccc(C(=O)N[C@@H](C)c3cc(F)cc(C(C)(C)C)c3)cc2n1CC1CCC1	liver microsomes			28
C/C(=N\OCCCN1CCOCC1)c1ccc(C(F)(F)F)cc1	liver microsomes			51
CN(C)C(=O)c1cccc(N2Cc3cn(Cc4ccc(F)c(Cl)c4)nc3C2)c1	liver microsomes			31
C[C@@H]1NC(=O)[C@H](CCCCN)NC(=O)[C@H](CCCNC(=N)N)NC(=O)[C@H](Cc2ccccc2)NC(=O)[C@H](CCCCN)NC(=O)CC/C=C/CCC(=O)NCCCC[C@@H](C(N)=O)NC(=O)[C@H](Cc2ccccc2)NC(=O)[C@H](Cc2ccccc2)NC(=O)[C@H](CCCNC(=N)N)NC(=O)[C@H](CCCCN)NC(=O)[C@H](Cc2ccccc2)NC1=O	liver microsomes	3.1 µM	pH 7.4	55.2
Cc1c(Cc2ccc(Cl)c(O[C@H](C)C(=O)O)c2)c2ccc(C(=O)N[C@@H](C)c3ccc(C(C)(C)C)cc3)cc2n1CC(C)C	liver microsomes			> 60
CC(=O)Nc1ccnc(N2Cc3cnn(Cc4ccc(F)cc4)c3C2)n1	liver microsomes			33
Cc1ncsc1-c1ccc(CNC(=O)[C@@H]2C[C@@H](O)CN2C(=O)[C@@H](NC(=O)COCCOCCOCCNC(=O)C[C@@H]2N=C(c3ccc(Cl)cc3)c3c(sc(C)c3C)-n3c(C)nnc32)C(C)(C)C)cc1	liver microsomes	1 µM		0.9
Cc1c(Cc2cc(Cl)cc(OC(C)C(=O)O)c2)c2ccc(C(=O)NC(C)c3ccc(C(C)(C)C)cc3)cc2n1CC1CC1 (stereo not drawn)	liver microsomes			43
CN(C)C(=O)c1ccnc(N2Cc3cn(Cc4ccc(C#N)cc4)nc3C2)n1	liver microsomes			> 1000
